Published values pooled from the literature.
Parts stem from different laboratories: compare values within a part only. Positions count from the first letter of the parent shown.

Set 1 — method: RNA Bind-n-Seq; molecule type: RNA; sample: in vitro; tested at: 200 nM; notes: whole 134-nt RNA, ends assumed; added: 150 mM LiCl; reference: input library; direction: higher = stronger binding; all molecules: 7-deaza-guanosine replaces G
Target: Fragile X messenger ribonucleoprotein 1, C-terminal low-complexity region (Fmr1, Mus musculus, UniProt P35922)
All sequences stand within: GGGAGUUCUACAGUCCGACGAUC … UGGAAUUCUCGGGUGUCAAGG
| Oligonucleotide | log2 enrichment |
| --- | --- |
| UCAAGUCCUGUGCUACACAUCGUAUGUACCGAAUCGGGAGGGAAAGGGAAAGGGAAAGUAUUAUGUUACGCCGUUCGGAUCUGCACUUCC | -0.472 |
| AGUCCUGUGCUACACAUCGUAUGUACCGAAUCGGGAAAAAAAGGGAGGGUUUUUGGGAAAGUAUUAUGUUACGCCGUUCGGAUCUGCACU | -2.39 |
| UCAAGUCCUGUGCUACACAUCGUAUGUACCGAAUCGGGUUUUUGGGAGGGAGGGAAAGUAUUAUGUUACGCCGUUCGGAUCUGCACUUCC | -1.79 |
| CACAGACAACACGCACCCACACAGACACAGAGUGAAGGGGUUGGGAUGGGGACAGGGUGCACAGCAGGGCGGGGUAGGACCCCAGCCCCU | 0.0711 |
| CUCAAGUCCUGUGCUACACAUCGUAUGUACCGAAUCGGCCCGGCCCGGCCCGGAAAGUAUUAUGUUACGCCGUUCGGAUCUGCACUUCCA | 0.299 |
| UUAUCACCAGGACUGCCAUGUUCCCAGGGCUCCAGCCCCUGGAGAGGGAGAGGGCACAUCCUGGGUAUGCCGCCAGUGUGUCUUUGCGAU | -1.07 |
| CAAGUCCUGUGCUACACAUCGUAUGUACCGAAUCGGGUUUGGGUUUGGGUUUGGGGAAAGUAUUAUGUUACGCCGUUCGGAUCUGCACUU | -1.53 |
| AGUCCUGUGCUACACAUCGUAUGUACCGAAUCGGGAAAGGGUUUUUUUGGGUUUGGGAAAGUAUUAUGUUACGCCGUUCGGAUCUGCACU | -2.08 |

Set 2 — method: competition protein-binding microarray; molecule type: double-stranded DNA, one strand shown; sample: in vitro; tested at: 2 µM; added: Cbf1 competitor, 0.05 µM; direction: higher = stronger binding; all sequences stand within: … GTCTTGATTCGCTTGACGCTGCTG
Target: Phosphate system positive regulatory protein PHO4, full length, GST-tagged (PHO4, Saccharomyces cerevisiae, UniProt P07270, residues 1-312)
Notes: whole 60-bp probe, lowest competitor level
Target sequence (chain): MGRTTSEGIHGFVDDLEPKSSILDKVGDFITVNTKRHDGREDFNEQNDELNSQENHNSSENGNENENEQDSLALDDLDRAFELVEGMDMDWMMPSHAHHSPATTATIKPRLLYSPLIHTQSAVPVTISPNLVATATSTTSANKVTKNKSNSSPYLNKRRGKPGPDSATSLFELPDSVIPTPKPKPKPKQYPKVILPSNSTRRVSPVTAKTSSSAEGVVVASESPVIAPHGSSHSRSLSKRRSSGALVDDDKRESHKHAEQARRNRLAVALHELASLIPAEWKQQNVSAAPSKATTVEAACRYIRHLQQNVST
| Oligonucleotide | fluorescence intensity [a.u.] |
| --- | --- |
| CCCGGACATGTACGCCAGGTGATGTTCCATTTGCCA | 4300 |
| ACACTTATGTGGTTCACCGTGCCGATGCTGTGTTTA | 6840 |
| CAGTTGTTACAGTTGCCCGTGAAGGTAGCAATGAAC | 5700 |
| CAATCGTCCCGGTGCCACATGAACCAAAACATTTGC | 5540 |
| CTTTCCCGATCTTGAAACGTGGGTGTAGCACATTTG | 13200 |
| CGGGGTTAAGTTTGTAAAGTGGGTGGCTTGCAGCAG | 4810 |
| AAATTACTAAGTTGAGTCGTGGGTGACGCCGTATGA | 8190 |
| CTAACGAAGGTTTGTCACATTACTTACAAGCCAAGT | 4450 |

Set 3 — method: RNA Bind-n-Seq; molecule type: RNA; sample: in vitro; tested at: not given; notes: RNA with constant flanks, ends assumed; reference: input RNA pool; direction: higher = stronger binding
Target: RING finger protein unkempt homolog, zinc fingers 1-6, GST-SBP tag (UNK, Homo sapiens, UniProt Q9C0B0, residues 30-357)
All sequences stand within: GGGAGUUCUACAGUCCGACGAUC … CAACAGAGGAUUGAGCAUCA
Construct (chain): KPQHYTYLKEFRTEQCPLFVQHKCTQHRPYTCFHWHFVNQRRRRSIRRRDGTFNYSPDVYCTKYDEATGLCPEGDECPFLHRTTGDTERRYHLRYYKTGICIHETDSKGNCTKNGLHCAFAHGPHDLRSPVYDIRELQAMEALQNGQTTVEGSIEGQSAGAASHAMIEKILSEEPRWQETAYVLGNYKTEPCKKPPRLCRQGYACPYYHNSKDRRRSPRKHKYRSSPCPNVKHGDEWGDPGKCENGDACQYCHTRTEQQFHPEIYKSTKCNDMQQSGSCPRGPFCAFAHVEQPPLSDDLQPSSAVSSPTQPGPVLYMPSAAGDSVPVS
| Oligonucleotide | bound/input enrichment [ratio] |
| --- | --- |
| GCAGAUGCUGAGGUUGCCAGGAGGAAAUCAGUCCCAUCAGAGGCUAUGCUUGCAGAGAGCCGUACCAGUUUGCCACCUGUCGCUGAUGAAAGCCCAGUCACUGUAAAACCAGAUAGUCAA | 0.177 |
| AUGCCUUUUAAGUAUGGUGUUUGACAUUAACUUGUGAAAAGUCUGUGAUGUUUGUAUAUAUACCGCAUUUGAAGAUAAACUUUUGUGUUAAAAUCUUUUUAUAACUCCAACUUUUGUAGG | 0.216 |
| GAGGAAGAGAAUGCUGUUUUAAAGUUCCCUGAGCAGGCAGGGACCCUGCAGAAUGCAACUACCCGCAGCUCCCUGACAGCACAUCUCAGAAGCCUCUCCAAAGGCGAAUCCCCUGUGGCU | 0.0949 |
| UUAAUCCCCUUUACUGCUCCCCCACUUCUCAUGGUAAUAACAAAGUCUUAUAUCCCCGUCCCCGCUUUCACUCAGAUGGCUUAUGGAGCCGGUUUCCUAGCUUUCUUGGGAGGGAUCAGA | 0.271 |
| UGGUGUUGGCGGUCUGGCUCAGCUGGGCAGGGGGUAACUUUACUGAUUUGGGGGUGGUUUUCCGUUUAAUUUUUCUUUUCUAGCUUCCCAUCGACGGUCAGUGCGCACGUUGUAAUCAGC | 0.913 |
| CGGAUCCAUUGCAGUAAAUCCUCAGUCAGGAGCAGGAGAAGCAGCCCUAAGAGAAAGCGUAACCGACCCUGUGCAAGUCAUCAGUCGCAUUCGGUAUGAGUGGUUUGUUUUUAUUUGGAA | 0.193 |
| UCAGGUACUUUGGAGGCCACAGAAAAGGAACCAGUGAACAAGGAAUCGGAGGAAAUGAGUGCCGUAUUUAUUUCUAAUUUGCCUAACAAAGGAUAUUCUACAGAAGAAAUUUACAACUUA | 0.412 |
| UUGGAUGGGGCUUCUUCUCUUUAGGUUUGUGUUUGCCCUCCCGCCUGCUUCUGGUUUGUAACCCGCACAGUCCCGCCACUCAGCACACUCAGUAUUACCGUGGAGCUGUGGGGUUCUUGC | 1.34 |

Further values, each from its own experiment
Starting sequence: viral docking peptide; KGVKRKLFAEDSS; partner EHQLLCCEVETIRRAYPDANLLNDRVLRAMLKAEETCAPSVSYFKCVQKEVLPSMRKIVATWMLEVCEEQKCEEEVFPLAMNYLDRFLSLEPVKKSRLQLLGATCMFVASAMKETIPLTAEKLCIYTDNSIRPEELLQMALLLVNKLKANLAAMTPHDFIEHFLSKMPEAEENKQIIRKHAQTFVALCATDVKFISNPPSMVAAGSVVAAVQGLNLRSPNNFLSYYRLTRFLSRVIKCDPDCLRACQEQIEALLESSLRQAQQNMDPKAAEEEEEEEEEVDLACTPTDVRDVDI
| Variant | target | assay | test system | setting | how to read | quantity | value |
| --- | --- | --- | --- | --- | --- | --- | --- |
| KGVKKKLFAEDSS [R5K] | CCND1, cyclin fold, Cln2 fusion (human) | yeast growth competition, sequencing | yeast | strong parent motif | reference: not given, higher = stronger binding | normalised enrichment score | 0.241 |
